Assay results pooled from the literature.
Lines come from different studies, so protocols differ. Several values in a cell are separate wells, animals, samples, runs or records. ± gives the spread as reported.
lasR: Transcriptional activator protein LasR (lasR, Pseudomonas aeruginosa, UniProt P25084)
UniProt Q08499, sequence (whole entry, looked up): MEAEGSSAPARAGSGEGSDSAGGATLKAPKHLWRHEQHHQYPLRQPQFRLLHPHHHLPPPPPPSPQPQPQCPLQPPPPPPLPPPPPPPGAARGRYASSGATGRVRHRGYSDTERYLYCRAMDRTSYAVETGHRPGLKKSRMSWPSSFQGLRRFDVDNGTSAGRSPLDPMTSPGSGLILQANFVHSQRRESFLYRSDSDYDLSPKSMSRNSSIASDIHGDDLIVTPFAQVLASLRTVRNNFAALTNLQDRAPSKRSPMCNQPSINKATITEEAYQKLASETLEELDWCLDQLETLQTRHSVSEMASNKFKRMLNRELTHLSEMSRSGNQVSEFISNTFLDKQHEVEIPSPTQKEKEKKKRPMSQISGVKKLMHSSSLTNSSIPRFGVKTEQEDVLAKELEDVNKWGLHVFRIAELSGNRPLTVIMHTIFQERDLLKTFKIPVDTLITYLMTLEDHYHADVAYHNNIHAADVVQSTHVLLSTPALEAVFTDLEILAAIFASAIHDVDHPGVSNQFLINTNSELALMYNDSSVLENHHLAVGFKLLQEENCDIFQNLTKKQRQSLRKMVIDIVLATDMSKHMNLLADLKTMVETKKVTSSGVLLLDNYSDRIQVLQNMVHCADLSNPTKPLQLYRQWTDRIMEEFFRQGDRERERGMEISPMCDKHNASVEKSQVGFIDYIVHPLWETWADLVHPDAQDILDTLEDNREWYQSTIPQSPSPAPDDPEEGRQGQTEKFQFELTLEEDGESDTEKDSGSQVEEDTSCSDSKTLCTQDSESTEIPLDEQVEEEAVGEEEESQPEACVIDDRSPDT
UniProt P51955, sequence (whole entry, looked up): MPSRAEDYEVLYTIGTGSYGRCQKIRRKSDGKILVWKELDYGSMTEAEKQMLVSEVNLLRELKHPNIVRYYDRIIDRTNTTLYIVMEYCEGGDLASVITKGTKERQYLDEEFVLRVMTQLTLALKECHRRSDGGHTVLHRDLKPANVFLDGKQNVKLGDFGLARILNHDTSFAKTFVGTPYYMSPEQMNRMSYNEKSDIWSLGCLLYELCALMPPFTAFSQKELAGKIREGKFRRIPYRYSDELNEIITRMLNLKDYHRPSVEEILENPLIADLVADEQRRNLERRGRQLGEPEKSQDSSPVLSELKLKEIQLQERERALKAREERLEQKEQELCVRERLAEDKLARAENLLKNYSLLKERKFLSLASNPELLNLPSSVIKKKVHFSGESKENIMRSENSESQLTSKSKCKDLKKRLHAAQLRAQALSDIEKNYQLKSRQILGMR
UniProt Q9H1R3, sequence (whole entry, looked up): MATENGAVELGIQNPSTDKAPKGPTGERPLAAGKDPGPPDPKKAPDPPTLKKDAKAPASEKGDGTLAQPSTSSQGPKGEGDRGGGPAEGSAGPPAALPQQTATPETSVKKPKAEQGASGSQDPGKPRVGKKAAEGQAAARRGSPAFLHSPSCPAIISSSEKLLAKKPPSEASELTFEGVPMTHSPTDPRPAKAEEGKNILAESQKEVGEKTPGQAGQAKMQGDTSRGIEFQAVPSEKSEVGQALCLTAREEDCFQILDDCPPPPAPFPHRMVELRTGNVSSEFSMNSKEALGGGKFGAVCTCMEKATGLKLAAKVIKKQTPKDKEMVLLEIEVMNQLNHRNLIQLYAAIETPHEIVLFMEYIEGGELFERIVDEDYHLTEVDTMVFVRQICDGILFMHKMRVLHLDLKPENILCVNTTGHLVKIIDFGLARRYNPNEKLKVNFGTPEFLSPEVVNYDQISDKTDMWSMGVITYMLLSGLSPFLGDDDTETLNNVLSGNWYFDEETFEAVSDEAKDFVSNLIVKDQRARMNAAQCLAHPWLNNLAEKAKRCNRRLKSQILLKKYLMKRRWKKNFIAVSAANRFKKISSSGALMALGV
UniProt Q16566, sequence (whole entry, looked up): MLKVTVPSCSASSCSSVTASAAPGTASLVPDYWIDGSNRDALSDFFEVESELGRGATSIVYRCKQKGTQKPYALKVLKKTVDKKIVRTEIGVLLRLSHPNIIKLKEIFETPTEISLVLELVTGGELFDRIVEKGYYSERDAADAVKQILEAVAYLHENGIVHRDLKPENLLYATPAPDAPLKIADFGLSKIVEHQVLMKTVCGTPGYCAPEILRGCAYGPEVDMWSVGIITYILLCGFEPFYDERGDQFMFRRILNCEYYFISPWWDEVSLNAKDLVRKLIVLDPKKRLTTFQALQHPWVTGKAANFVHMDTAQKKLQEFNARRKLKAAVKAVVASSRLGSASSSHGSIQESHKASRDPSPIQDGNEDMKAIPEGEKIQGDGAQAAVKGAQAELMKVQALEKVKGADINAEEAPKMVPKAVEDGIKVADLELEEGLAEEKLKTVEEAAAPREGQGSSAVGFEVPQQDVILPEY
UniProt P48729, sequence (whole entry, looked up): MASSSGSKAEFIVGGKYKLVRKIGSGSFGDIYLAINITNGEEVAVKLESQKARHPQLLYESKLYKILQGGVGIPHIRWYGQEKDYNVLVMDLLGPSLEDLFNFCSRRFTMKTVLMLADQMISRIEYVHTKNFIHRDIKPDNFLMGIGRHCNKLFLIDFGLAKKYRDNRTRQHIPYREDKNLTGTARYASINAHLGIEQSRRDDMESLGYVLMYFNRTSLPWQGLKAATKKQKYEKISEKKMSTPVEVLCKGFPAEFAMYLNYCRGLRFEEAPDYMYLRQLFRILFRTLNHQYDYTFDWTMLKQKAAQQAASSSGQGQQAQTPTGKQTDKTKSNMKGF
UniProt P27361, sequence (whole entry, looked up): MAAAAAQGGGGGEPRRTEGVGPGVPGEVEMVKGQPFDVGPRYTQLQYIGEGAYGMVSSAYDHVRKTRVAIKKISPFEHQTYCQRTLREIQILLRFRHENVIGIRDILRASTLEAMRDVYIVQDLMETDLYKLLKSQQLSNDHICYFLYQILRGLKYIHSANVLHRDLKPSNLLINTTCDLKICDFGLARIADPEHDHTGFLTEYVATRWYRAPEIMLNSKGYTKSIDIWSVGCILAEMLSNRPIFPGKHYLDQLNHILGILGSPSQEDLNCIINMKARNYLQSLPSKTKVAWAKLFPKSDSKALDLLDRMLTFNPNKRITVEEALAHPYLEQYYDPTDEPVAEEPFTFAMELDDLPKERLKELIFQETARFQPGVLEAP
UniProt Q9UK32, sequence (whole entry, looked up): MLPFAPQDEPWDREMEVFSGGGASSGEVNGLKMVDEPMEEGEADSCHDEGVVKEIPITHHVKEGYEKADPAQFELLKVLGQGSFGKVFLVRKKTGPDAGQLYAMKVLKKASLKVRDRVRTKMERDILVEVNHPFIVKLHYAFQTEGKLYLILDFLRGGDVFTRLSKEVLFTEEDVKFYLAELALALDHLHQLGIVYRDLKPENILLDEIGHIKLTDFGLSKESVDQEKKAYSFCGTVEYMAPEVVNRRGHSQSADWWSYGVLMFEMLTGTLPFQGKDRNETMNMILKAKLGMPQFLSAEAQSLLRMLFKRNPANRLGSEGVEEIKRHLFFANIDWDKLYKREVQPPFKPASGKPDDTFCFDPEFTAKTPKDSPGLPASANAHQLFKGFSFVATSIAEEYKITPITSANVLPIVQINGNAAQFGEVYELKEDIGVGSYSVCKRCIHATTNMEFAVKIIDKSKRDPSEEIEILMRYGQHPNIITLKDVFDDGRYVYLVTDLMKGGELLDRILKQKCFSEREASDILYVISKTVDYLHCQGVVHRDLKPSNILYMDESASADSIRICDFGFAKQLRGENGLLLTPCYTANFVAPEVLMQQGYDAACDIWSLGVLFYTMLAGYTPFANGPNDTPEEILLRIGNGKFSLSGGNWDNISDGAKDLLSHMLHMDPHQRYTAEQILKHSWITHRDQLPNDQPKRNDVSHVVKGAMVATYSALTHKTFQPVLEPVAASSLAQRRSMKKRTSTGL
UniProt P15207, sequence (whole entry, looked up): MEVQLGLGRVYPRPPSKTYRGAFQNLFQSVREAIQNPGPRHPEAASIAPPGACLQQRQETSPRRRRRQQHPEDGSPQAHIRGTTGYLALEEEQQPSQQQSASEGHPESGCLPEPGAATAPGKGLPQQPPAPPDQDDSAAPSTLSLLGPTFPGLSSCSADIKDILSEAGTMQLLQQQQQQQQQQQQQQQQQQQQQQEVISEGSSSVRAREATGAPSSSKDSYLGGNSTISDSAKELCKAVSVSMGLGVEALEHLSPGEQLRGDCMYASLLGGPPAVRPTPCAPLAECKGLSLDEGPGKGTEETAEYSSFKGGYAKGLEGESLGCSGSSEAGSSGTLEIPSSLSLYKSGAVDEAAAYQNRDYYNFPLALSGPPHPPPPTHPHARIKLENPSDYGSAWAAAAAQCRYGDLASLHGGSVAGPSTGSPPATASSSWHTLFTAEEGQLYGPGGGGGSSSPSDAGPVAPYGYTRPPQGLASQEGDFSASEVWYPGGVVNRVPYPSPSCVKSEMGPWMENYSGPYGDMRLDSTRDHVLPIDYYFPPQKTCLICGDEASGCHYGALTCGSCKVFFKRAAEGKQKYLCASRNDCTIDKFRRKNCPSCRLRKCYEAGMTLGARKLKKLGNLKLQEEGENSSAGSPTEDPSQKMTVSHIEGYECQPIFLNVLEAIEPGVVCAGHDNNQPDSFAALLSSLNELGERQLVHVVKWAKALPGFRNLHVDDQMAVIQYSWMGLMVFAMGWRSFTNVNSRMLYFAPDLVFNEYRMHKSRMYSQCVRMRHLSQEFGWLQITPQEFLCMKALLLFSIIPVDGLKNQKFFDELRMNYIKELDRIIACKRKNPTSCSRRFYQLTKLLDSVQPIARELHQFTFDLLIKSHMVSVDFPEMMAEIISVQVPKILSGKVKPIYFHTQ

The inhibition of `O=C(O)c1ccccc1/C=N/Nc1nc(-c2ccccc2Cl)cs1` is reported as -3.82% (Serine/threonine-protein kinase Nek2 (NEK2, Homo sapiens, UniProt P51955); enzyme activity, inhibitor; 1 µM).
`CCCCCCCCCC(=O)CC(=O)Nc1cccc(OC)c1` has an inhibition of 36% (lasR; reporter gene, antagonist; Escherichia coli JLD271; 10 µM, pSC11 and pJN105L plasmids, with: OdDHL 2 nM).
With `COc1ccc2c(c1O)-c1c(O)c(OC)cc3c1[C@H](C2)[N+](C)(C)CC3` the inhibition was 7.23% (3',5'-cyclic-AMP phosphodiesterase 4D (PDE4D, Homo sapiens, UniProt Q08499); enzyme activity, inhibitor, radiometric; 5 µM).
The inhibition of `CN(C)[C@H]1C[C@@]23CC[C@@]4(O2)C(=CC[C@]2(C)[C@@H](c5ccc6ccncc6c5)CC[C@H]24)C=C3[C@@H](O)[C@@H]1O` is reported as -0.7% (Casein kinase I isoform alpha (CSNK1A1, Homo sapiens, UniProt P48729); ATP probe labelling, inhibitor, KiNativ profiling; 1 µM).
`CC(=O)NC[C@@H]1C[C@@H](O)[C@H]2[C@H](O)C[C@@H](CO)N12` gave an inhibition of 42.8% and 33.3% (β-N-acetylglucosaminidase; enzyme activity, inhibitor, colorimetric; Canavalia ensiformis; 75 nM, with: p-nitrophenyl GlcNAc substrate).
For `CN[C@@H]1[C@H](O)[C@H](NC)[C@H]2O[C@]3(O)[C@H](O[C@@H]2[C@H]1O)O[C@H](C)C[C@H]3NC(=O)Cc1cc(Cl)ccn1`, the inhibition was -1% (Androgen receptor (Ar, Rattus norvegicus, UniProt P15207); ligand displacement, radioligand; 10 µM).
`O=C(CCCOc1cccc(Br)c1)N[C@H]1CCSC1=O` gave an inhibition of -98% (lasR; reporter gene, antagonist; Escherichia coli JLD271; 10 µM, pSC11 and pJN105L plasmids, with: OdDHL 2 nM).
With `C=CC(=O)Nc1cc(-c2nn(C3CCC(N4CCN(C(C)=O)CC4)CC3)c3ncnc(N)c23)ccc1Oc1ccccc1` (stereo not shown) the inhibition was -2.3% (Mitogen-activated protein kinase 3 (MAPK3, Homo sapiens, UniProt P27361); inhibitor, KiNativ profiling; biochemical; 2 µM).
For `O=C(O)CCn1c(=O)oc2cc(Cl)c(Cl)cc21`, the inhibition was 24.5% (Kynurenine--oxoglutarate transaminase 1 (KYAT1, Homo sapiens, UniProt Q16773); enzyme activity, inhibitor; 100 µM).
With `N[C@H](C(=O)N1CCCC1)C1CCN(c2nccc3c(-c4ncc(Cl)cc4Cl)cccc23)CC1` the inhibition was 2.7% (Myosin light chain kinase 2, skeletal/cardiac muscle (MYLK2, Homo sapiens, UniProt Q9H1R3); kinase activity, inhibitor; 10 µM, with: ATP 1 mM).
`C[C@H](NCc1ccc(-c2ccc(C(F)(F)F)cc2)cc1)C(N)=O` gave an inhibition of 17% (GABAA receptor benzodiazepine site, rat hippocampus; binding, radioligand binding; biochemical; 1 µM, with: [3H]Ro 15-1788 1.0 nM).
The inhibition of `COc1ccc(F)cc1S(=O)(=O)Nc1cnc2c(c1)C(=O)NCCO2` is reported as -4% (phosphodiesterase 3; enzyme activity, inhibitor; 10 µM).
`CCCC[C@@H](C=O)NC(=O)[C@H](CC(C)C)NC(=O)[C@H](CC(C)C)NC(C)=O` gave an inhibition of 18.6 ± 20.6% (Ribosomal processing cysteine protease Prp (prp, Staphylococcus aureus, UniProt Q2FXS9, N63Q); enzyme activity, inhibitor; 10 µM, prp 21.4 nM, with: FITC peptide substrate 0.5 µM).
`CCC1CC(c2ccc(C(=O)O)cc2C)=NN1c1ccc(C#N)c(Cl)c1` (stereo not shown) has an inhibition of 0% (DNA (cytosine-5)-methyltransferase 3B, with DNMT3L (DNMT3B, Homo sapiens, UniProt Q9UBC3); enzyme activity; 10 µM).
`O=C(CCCOc1ccc(Cl)cc1)N[C@H]1CCOC1=O` gave an inhibition of 14% (lasR; reporter gene, antagonist; Escherichia coli JLD271; 10 µM, pSC11 and pJN105L plasmids, with: OdDHL 2 nM).
`O=C(CN1CN(c2ccccc2)C2(CCN(C(=O)c3cnc4[nH]ncc4c3)CC2)C1=O)NCC(F)(F)F` gave an inhibition of under 50% (Ephrin type-B receptor 2 (EPHB2, Homo sapiens, UniProt P29323); inhibitor; concentration not given).
For `CC(C)[C@H]1NC(=O)C[C@H]2/C=C/CCSSC[C@@H](NC1=O)C(=O)N[C@H](Cc1cccc3ccccc13)C(=O)NCC(=O)O2`, the inhibition was -0.346% (Calcium/calmodulin-dependent protein kinase type IV (CAMK4, Homo sapiens, UniProt Q16566); enzyme activity, inhibitor; 10 µM).
With `CN(/N=C/c1ccccc1C(=O)O)c1nc(-c2ccccc2Cl)cs1` the inhibition was 10.3% (Death-associated protein kinase 1 (DAPK1, Homo sapiens, UniProt P53355); kinase activity; 1 µM).
With `O=C(CCc1ccc(C(F)(F)F)cc1)N[C@H]1CCOC1=O` the inhibition was -53% (lasR; reporter gene, antagonist; Escherichia coli JLD271; 10 µM, pSC11 and pJN105L plasmids, with: OdDHL 2 nM).
The inhibition of `CN1CCCN(C(=O)c2ccc(S(=O)(=O)F)cc2)c2ccccc21` is reported as 38.1% (Uncharacterized hydrolase SAUSA300_2518 (Staphylococcus aureus, UniProt Q2FDS6); enzyme activity, inhibitor; 50 µM).
With `O=C(CC(=O)N[C@H]1CCOC1=O)Cc1ccccc1` the inhibition was 53% (lasR; reporter gene, antagonist; Escherichia coli JLD271; 10 µM, pSC11 and pJN105L plasmids, with: OdDHL 2 nM).
With `CS(C)(=O)=Nc1ccc(-c2ccc(-c3nc4cc(O[C@@H]5CO[C@H]6[C@@H]5OC[C@H]6O)[nH]c4cc3F)cc2)cc1` the inhibition was 5% (Ribosomal protein S6 kinase alpha-6 (RPS6KA6, Homo sapiens, UniProt Q9UK32); enzyme activity, inhibitor; 10 µM).

For quick reference, copied from above:
With `N[C@H](C(=O)N1CCCC1)C1CCN(c2nccc3c(-c4ncc(Cl)cc4Cl)cccc23)CC1` the inhibition was 2.7% (Myosin light chain kinase 2, skeletal/cardiac muscle (MYLK2, Homo sapiens, UniProt Q9H1R3); kinase activity, inhibitor; 10 µM, with: ATP 1 mM).
With `COc1ccc2c(c1O)-c1c(O)c(OC)cc3c1[C@H](C2)[N+](C)(C)CC3` the inhibition was 7.23% (3',5'-cyclic-AMP phosphodiesterase 4D (PDE4D, Homo sapiens, UniProt Q08499); enzyme activity, inhibitor, radiometric; 5 µM).
The inhibition of `O=C(O)c1ccccc1/C=N/Nc1nc(-c2ccccc2Cl)cs1` is reported as -3.82% (Serine/threonine-protein kinase Nek2 (NEK2, Homo sapiens, UniProt P51955); enzyme activity, inhibitor; 1 µM).
The inhibition of `COc1ccc(F)cc1S(=O)(=O)Nc1cnc2c(c1)C(=O)NCCO2` is reported as -4% (phosphodiesterase 3; enzyme activity, inhibitor; 10 µM).
